Assay results gathered from unrelated publications.
A part holds a random share of what one study measured.

Set 1 — technique: RNA Bind-n-Seq; molecule type: RNA; matrix: in vitro; concentration: 365 nM; relative to: no-protein control; reading: higher = stronger binding
Target: RNA binding protein fox-1 homolog 2, RRM domain, GST-SBP tag (RBFOX2, Homo sapiens, UniProt O43251-10, residues 100-194)
Setting: natural RNA segment, single round, ends assumed
All sequences stand within: GGGAGUUCUACAGUCCGACGAUC … UGGAAUUCUCGGGUGCCAA
Residues (chain): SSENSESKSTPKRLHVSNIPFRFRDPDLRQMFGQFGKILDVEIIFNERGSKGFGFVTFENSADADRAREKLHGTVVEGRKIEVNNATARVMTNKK
For `CCUCCGGCCGUCCCUACCGACAGUGUUUGCCAAAGACAGGAGGCUGGAGGUGGACAGACCGCACGGUGGGCAGAAGAGGCUCGAGGGAGCCGCCCAGCGCUGGCCCUGCU`, “RBNS enrichment (R)” read 0.39.
`UUCCUGACCCAAGAGACACCCUAUACAUGAGGGCCCAGCUCUUUACCUCUGGGGACAGCUGGCAUGCCUUUGGCUUUGUGUAGAGUAGGGUGGUGAGACCCUUCCUGGCU` — result for “RBNS enrichment (R)”: 0.49.
Under “RBNS enrichment (R)”, `AGAAGAAAUGUGGAGCGGAAACCCAGCACGAGGGGCUAGAACUCAGGGUAGAGAAUUUGCAGGCGGUGCAGACAGACUUUAGCUCCGAUCCACUGCAGAAAGUUGUGUGC` is recorded as 3.96.
`CUCUGUAUUUGCCCAGGAUGGAGCACUCUGUCCCUGUCACAGGUGUGGUGAUUCCUGAGACUGGCAACAUGCCACAGAGUUGAAAUAAUACUCAGAACUCAGGAGCCUUG` — result for “RBNS enrichment (R)”: 0.346.
Under “RBNS enrichment (R)”, `UUCAGCUGACUUUGUCUACAAGGAUUAUUAGCAAAUUCUGUAGGAGCAAGCAUGUCUGACCUUAACUUAAUGGAUCCCUUAUUCAAUCAGUGGCUUCUGUCUUUAUGUCU` is recorded as 1.6.
Under “RBNS enrichment (R)”, `GGACAACACUAACACAGGACCCUUGUUGCUACCUGGUUCUGACUCCAGACAACCACAAUGCCAGGUACGGGGUCUCUGAGCAGCAGCCAGUGCAGAUCCCCAUUUGCAGU` is recorded as 0.378.
`AGGUUGUUUAAAAAGUCAGAAUUUCUGAGUACCAUUUCAGUCUGGAGGCUUUUAGCUGAGUCCAGGUAUAAAUUAGCCAUAAACAGUCAAUGACCCACAGUAGUCUUUAG` — result for “RBNS enrichment (R)”: 0.297.
`CCCAAUUUGUGAAGAGACUCCUAACACUGCACUAACCCAUUUGUGUACAUACAUGGGCUCAGCCCUGGGCCAAAUGUGCCUGAUGGGAACAGACUUGCAGGGCCAUGCAG` — result for “RBNS enrichment (R)”: 0.447.

Set 2 — observed: enzyme activity; mode: inhibitor; concentration: 20 µM; setting: hit confirmation
Target: Replicase polyprotein 1ab, main protease (rep, Severe acute respiratory syndrome coronavirus 2, UniProt P0DTD1)
For `C[C@H]1COC2=C1C(=O)C(=O)c1c2ccc2c1CCCC2(C)C`, the inhibition was 92.3%.
For `CCCCCCNC(=O)n1cc(F)c(=O)[nH]c1=O`, the inhibition was 111%.
With `C=C1/C(=C\C=C2/CCC[C@]3(C)[C@@H]([C@H](C)CCCC(O)(C(F)(F)F)C(F)(F)F)CC[C@@H]23)C[C@@H](O)C[C@@H]1O` the inhibition was 4.8%.

Set 3 — mode: inhibitor; concentration: 20 µM
Target: Replicase polyprotein 1ab, nsp13 helicase (rep, Severe acute respiratory syndrome coronavirus 2, UniProt P0DTD1)
`CC(NC(=O)c1ccccc1/N=C/c1c(O)ccc2ccccc12)c1ccccc1` (centres unmarked) gave an inhibition of 6.64%.
The inhibition of `O=C1COc2nccc(-c3ccccc3F)c2CN1Cc1cc(C(F)(F)F)cc(C(F)(F)F)c1` is reported as 7.47%.
For `O=C1c2c(O)cc(O)cc2O[C@H](c2cc(O)c(O)c(O)c2)[C@H]1O`, the inhibition was 1.85%.
With `O=C(NOCC(O)CO)c1cc(Br)c(F)c(F)c1Nc1ccc(I)cc1F` (centres unmarked) the inhibition was 4.55%.
The inhibition of `CCOC(=O)Nc1ccc(NCc2ccc(F)cc2)cc1N` is reported as 3.77%.
`CCC(NC(C)C)C(O)c1ccc(O)c(O)c1` (centres unmarked) has an inhibition of -2.75%.
For `CCC(=O)N1CCOc2c(cc(-c3ccc(OC)c(OC)c3)cc2OC[C@H]2CCCN(C)C2)C1`, the inhibition was -4.02%.
For `Oc1c(I)cc(I)c2cccnc12`, the inhibition was -2.82%.
For `O=C1Nc2cc(Cl)c(Cl)cc2N2CCNCC12` (centres unmarked), the inhibition was 3.79%.
The inhibition of `CCC[C@H](Nc1nc(-c2ccc(NC(=O)NCC)c(OC)c2)ncc1C)c1cccnc1` is reported as -1.69%.
`CCC(N)C(O)c1ccc(O)c(O)c1` (centres unmarked) gave an inhibition of 4.78%.
`C[C@H](Nc1ncnc2[nH]cnc12)c1nc2ccc(F)cc2c(=O)n1-c1ccccc1` gave an inhibition of 3.51%.
`COc1ccc(/C=C\c2cc(OC)c(OC)c(OC)c2)cc1O` gave an inhibition of 5.42%.
`CN[C@H](CNC(=O)N1CCC[C@@H]([C@@H](OCCNC(=O)OC)c2cccc(Cl)c2)C1)C[C@H]1CCCOC1` gave an inhibition of 1.37%.
`C[C@@H]1CN([C@H]2CC[C@](C#N)(c3ccc(F)cc3)CC2)CC[C@]1(C(=O)O)c1ccccc1` gave an inhibition of 2.06%.
With `CN(C)c1ccccc1CN1CCCN(Cc2ccccc2N(C)C)C1c1ccncc1` the inhibition was 4.41%.
With `CCCC(CCC)C(=O)NCC(N)=O` the inhibition was -10.5%.
For `COc1ccccc1N1CCN(CC(O)COc2cccc3ccccc23)CC1` (centres unmarked), the inhibition was 2.62%.
For `Cc1c(C(=O)Nc2ccc(N3CCC(N4CCOCC4)CC3)c(C#N)c2)cnn1-c1ccc(Cl)cc1`, the inhibition was 9.01%.
For `Cc1c(C(=O)Nc2ccc(N3C[C@@H](C)O[C@@H](C)C3)nc2)cccc1-c1ccc(OC(F)(F)F)cc1`, the inhibition was 4%.
`Cc1cc(C)cc(OCC2CNC(=O)O2)c1` (centres unmarked) has an inhibition of 10.5%.
`COc1ccc2[nH]cc(CCNC(C)=O)c2c1` has an inhibition of 1.91%.
With `N[C@H]1C[C@@H]1c1ccc(-c2cccc(O)c2)cc1` the inhibition was 9.09%.
For `CC(C)(O)C(=O)N1CCN(c2ccc(C(F)(F)F)c(C3=C(c4c[nH]c5ccccc45)C(=O)NC3=O)c2)CC1`, the inhibition was -1.06%.
The inhibition of `CC(C)[N+](C)(CCC(C(N)=O)(c1ccccc1)c1ccccc1)C(C)C` is reported as -3.33%.

Set 4 — cell line: HEK-293T/ACE2; concentration: 10 µM; time: 16 h; relative to: vehicle
With `O=C(C1CCCCC1)N1CC(=O)N2CCc3ccccc3C2C1` (centres unmarked) the viability was 100%.
`CC(C)c1nc(N(C)S(C)(=O)=O)nc(-c2ccc(F)cc2)c1/C=C/[C@@H](O)C[C@@H](O)CC(=O)O` has a viability of 100%.
With `C[C@H](CS)C(=O)N1CCC[C@H]1C(=O)O` the viability was 99.1%.
For `CC(C)[C@H](N)C(=O)OCC(CO)OCn1cnc2c(=O)nc(N)[nH]c21` (some centres unmarked), the viability was 102%.

Set 5 — technique: protein-binding microarray; molecule type: double-stranded DNA, one strand shown; matrix: in vitro; concentration: not given; reading: higher = stronger binding
Target: Transcriptional repressor CTCF (CTCF, Homo sapiens, UniProt P49711, residues 1-727, full length assumed)
UniProt P49711, sequence (whole entry, looked up): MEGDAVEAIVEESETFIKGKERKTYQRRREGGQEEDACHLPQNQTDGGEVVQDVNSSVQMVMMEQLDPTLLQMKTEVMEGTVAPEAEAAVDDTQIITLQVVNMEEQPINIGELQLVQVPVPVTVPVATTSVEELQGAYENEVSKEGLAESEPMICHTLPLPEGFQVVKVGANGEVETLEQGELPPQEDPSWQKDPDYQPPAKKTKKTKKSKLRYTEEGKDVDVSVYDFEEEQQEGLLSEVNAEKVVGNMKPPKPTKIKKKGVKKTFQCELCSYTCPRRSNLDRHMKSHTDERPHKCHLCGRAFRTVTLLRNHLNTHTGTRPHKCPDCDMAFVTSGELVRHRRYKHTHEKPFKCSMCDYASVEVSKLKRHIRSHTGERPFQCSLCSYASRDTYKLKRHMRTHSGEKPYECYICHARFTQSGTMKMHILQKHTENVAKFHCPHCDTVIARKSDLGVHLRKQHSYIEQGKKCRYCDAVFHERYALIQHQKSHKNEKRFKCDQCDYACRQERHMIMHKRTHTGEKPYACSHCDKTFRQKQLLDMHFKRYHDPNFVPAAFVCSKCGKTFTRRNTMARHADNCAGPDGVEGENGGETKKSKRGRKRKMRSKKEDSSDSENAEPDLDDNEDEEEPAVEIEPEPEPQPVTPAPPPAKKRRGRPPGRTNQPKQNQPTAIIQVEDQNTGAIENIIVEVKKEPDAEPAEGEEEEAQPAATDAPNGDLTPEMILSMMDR
Setting: k-mer, scored over probes, only values ≥0.25
`TACAGAAA` has an E-score of 0.282.
The E-score of `CCTTGTTA` is reported as 0.292.
The E-score of `ATACAATG` is reported as 0.302.
With `ACATACTC` the E-score was 0.251.
`AGCAAATA` has an E-score of 0.271.
`GCGCGCAC` gave an E-score of 0.363.
For `ATAATACA`, the E-score was 0.344.
The E-score of `AGTATGAA` is reported as 0.251.

Set 6 — technique: RNAcompete; molecule type: RNA; matrix: in vitro; concentration: 20 nM; setting: 7-mer, probes averaged, single round; relative to: mean of 7-mers; reading: higher = stronger binding
Target: PABPC1L2, full length, GST fusion (mouse, UniProt A0ABA7IW68)
Target sequence (chain): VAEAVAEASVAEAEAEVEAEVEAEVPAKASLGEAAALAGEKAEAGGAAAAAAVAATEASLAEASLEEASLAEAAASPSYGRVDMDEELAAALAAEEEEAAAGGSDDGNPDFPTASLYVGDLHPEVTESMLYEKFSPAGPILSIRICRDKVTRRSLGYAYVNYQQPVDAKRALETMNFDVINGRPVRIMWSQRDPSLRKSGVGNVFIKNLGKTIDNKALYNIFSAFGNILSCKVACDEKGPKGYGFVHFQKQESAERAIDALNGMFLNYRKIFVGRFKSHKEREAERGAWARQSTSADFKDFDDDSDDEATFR
For `AAAUGCU`, the 7-mer Z-score was 0.956.
`UCGAUUA` gave a 7-mer Z-score of -0.161.
`CCACAGU` gave a 7-mer Z-score of -0.295.
The 7-mer Z-score of `UUUCUAU` is reported as -0.273.
With `UAUCAGC` the 7-mer Z-score was -0.244.
For `UCGUGGC`, the 7-mer Z-score was -0.226.
The 7-mer Z-score of `CAUAACA` is reported as -0.021.
With `CCACCGA` the 7-mer Z-score was -0.141.

Excerpt of the above (set 3):
`C[C@@H]1CN([C@H]2CC[C@](C#N)(c3ccc(F)cc3)CC2)CC[C@]1(C(=O)O)c1ccccc1` gave an inhibition of 2.06%.
With `CN(C)c1ccccc1CN1CCCN(Cc2ccccc2N(C)C)C1c1ccncc1` the inhibition was 4.41%.
With `CCCC(CCC)C(=O)NCC(N)=O` the inhibition was -10.5%.
For `COc1ccccc1N1CCN(CC(O)COc2cccc3ccccc23)CC1` (centres unmarked), the inhibition was 2.62%.
For `Cc1c(C(=O)Nc2ccc(N3CCC(N4CCOCC4)CC3)c(C#N)c2)cnn1-c1ccc(Cl)cc1`, the inhibition was 9.01%.
